Experimental data collected from several papers.
Each line is one published result; not all experiments were run side by side. Numbers after ± are the reported error.
IDO1: Indoleamine 2,3-dioxygenase 1 (IDO1, Homo sapiens, UniProt P14902)
ESR1: Estrogen receptor (ESR1, Homo sapiens, UniProt P03372)

Chains of the proteins cited; added tags and fusions are not shown. Lines headed by an entry give the natural chain unless they say otherwise; changes in a name come on top. Residues count along the entry.
UniProt P14902, whole entry: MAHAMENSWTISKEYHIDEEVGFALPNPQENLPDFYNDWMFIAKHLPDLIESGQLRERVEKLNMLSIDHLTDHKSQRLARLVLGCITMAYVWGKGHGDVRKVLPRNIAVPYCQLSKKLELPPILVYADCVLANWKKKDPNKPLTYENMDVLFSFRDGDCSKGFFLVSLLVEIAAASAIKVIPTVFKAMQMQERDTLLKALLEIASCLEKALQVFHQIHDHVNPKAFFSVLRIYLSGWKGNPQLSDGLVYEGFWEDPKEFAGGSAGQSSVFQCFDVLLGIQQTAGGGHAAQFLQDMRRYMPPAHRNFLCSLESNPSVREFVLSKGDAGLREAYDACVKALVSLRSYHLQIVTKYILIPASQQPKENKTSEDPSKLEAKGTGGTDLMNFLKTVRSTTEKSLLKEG
UniProt P03372, whole entry: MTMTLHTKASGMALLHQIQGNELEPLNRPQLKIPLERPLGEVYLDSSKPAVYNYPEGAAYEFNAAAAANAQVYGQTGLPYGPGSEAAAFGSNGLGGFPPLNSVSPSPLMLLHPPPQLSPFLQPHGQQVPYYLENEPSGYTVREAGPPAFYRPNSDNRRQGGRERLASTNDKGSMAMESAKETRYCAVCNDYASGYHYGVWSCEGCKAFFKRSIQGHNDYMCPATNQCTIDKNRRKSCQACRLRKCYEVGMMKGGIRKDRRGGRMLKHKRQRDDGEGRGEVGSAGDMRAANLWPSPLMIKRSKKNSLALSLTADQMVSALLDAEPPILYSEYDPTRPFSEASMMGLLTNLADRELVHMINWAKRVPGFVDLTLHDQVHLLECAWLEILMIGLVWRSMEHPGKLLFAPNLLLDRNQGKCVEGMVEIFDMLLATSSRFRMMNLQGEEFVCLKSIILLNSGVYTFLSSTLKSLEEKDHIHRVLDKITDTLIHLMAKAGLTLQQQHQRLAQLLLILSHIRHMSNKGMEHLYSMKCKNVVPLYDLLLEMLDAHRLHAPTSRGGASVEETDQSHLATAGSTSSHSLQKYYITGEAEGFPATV
UniProt A4HTR0, 1-443: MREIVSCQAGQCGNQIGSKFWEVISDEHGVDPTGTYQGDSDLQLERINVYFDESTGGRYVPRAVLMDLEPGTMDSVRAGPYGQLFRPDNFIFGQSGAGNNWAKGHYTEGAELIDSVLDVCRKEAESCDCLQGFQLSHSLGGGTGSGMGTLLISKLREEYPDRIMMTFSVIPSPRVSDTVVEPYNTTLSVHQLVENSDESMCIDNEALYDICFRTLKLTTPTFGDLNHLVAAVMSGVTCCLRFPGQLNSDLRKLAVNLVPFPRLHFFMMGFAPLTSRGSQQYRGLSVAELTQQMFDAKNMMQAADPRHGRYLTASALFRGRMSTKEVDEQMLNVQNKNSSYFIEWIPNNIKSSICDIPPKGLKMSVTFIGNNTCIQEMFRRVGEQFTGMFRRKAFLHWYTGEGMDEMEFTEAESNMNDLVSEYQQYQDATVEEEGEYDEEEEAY
UniProt P21980, whole entry: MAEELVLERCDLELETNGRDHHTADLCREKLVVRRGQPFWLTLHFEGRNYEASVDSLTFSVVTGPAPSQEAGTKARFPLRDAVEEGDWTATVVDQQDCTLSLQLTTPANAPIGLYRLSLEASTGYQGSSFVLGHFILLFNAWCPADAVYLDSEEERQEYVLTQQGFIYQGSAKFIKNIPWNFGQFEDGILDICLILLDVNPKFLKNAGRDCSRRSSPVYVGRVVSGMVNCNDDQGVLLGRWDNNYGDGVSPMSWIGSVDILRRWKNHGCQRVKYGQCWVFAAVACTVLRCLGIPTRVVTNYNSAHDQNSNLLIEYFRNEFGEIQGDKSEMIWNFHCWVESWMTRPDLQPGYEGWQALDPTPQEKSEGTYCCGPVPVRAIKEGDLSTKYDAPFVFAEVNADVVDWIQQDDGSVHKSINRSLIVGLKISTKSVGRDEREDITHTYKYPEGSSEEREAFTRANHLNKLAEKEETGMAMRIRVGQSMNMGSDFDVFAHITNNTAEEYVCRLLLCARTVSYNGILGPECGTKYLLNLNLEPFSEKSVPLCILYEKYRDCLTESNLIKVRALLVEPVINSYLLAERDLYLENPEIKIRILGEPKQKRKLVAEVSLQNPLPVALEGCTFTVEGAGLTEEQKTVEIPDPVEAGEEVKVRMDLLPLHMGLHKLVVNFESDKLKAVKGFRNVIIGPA
UniProt P08246, 30-247 limits assumed: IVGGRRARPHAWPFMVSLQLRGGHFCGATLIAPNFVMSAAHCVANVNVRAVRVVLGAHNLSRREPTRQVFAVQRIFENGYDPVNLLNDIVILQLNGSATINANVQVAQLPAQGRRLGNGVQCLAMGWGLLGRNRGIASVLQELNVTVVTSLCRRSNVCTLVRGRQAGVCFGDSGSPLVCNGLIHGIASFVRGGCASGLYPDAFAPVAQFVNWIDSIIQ
UniProt Q99572, whole entry: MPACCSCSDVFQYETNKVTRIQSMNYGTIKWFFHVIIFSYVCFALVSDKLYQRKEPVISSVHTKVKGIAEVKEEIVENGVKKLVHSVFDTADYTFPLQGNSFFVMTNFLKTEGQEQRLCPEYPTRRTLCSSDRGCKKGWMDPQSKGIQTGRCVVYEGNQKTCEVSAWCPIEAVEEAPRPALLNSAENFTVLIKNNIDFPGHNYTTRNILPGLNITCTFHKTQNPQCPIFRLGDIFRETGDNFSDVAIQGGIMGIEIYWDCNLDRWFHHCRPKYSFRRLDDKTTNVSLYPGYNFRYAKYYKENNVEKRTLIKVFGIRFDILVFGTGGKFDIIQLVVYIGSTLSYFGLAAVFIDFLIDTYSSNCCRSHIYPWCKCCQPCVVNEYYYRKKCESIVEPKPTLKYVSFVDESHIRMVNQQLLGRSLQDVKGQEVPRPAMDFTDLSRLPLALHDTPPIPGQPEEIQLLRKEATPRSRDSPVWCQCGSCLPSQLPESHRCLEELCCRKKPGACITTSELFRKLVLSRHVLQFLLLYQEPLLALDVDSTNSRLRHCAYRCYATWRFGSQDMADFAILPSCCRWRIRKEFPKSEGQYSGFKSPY
UniProt Q00961, 20-1237 limits assumed: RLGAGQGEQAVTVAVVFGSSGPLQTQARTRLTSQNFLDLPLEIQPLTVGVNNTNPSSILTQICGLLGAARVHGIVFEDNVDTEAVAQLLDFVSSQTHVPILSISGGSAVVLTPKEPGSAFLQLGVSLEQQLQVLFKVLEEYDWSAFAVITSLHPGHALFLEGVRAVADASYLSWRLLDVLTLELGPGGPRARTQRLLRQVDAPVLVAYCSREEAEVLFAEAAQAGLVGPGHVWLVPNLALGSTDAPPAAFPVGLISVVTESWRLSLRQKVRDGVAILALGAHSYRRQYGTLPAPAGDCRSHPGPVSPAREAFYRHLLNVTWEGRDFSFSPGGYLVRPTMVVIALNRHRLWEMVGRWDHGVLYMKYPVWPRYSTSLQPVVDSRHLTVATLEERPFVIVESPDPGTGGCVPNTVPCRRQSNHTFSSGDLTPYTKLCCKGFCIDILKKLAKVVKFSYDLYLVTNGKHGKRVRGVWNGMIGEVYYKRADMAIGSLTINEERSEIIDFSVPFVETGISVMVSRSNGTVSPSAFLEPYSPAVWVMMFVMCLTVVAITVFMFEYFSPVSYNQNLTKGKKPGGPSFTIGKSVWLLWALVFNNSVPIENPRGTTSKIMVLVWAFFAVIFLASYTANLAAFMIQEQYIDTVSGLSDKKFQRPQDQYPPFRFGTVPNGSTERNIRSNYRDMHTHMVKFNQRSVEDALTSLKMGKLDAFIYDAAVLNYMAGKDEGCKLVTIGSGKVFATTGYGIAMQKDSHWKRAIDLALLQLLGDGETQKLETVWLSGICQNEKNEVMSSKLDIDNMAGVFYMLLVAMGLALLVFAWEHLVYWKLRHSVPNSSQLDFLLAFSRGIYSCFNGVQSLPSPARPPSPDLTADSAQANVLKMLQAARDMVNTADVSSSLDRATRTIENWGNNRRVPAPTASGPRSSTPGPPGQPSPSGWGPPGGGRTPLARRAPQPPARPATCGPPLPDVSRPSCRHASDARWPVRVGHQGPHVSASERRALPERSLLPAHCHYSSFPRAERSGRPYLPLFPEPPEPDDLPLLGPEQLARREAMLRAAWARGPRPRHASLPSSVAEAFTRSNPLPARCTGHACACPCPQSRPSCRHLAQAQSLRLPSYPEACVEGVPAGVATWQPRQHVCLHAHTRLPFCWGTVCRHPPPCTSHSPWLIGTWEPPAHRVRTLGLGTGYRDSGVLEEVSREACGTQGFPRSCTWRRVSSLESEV
UniProt O88693, whole entry: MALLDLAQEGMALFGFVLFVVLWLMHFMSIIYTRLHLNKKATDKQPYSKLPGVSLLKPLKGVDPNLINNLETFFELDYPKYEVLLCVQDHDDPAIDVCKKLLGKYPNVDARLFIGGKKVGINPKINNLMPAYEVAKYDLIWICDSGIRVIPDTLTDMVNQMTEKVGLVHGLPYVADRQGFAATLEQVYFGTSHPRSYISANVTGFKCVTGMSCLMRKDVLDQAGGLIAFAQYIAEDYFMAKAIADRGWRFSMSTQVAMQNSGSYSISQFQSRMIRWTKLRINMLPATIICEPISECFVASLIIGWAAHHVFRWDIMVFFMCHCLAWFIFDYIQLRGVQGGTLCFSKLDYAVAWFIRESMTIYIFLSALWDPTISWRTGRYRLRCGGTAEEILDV
UniProt P31424, 21-1203 limits assumed: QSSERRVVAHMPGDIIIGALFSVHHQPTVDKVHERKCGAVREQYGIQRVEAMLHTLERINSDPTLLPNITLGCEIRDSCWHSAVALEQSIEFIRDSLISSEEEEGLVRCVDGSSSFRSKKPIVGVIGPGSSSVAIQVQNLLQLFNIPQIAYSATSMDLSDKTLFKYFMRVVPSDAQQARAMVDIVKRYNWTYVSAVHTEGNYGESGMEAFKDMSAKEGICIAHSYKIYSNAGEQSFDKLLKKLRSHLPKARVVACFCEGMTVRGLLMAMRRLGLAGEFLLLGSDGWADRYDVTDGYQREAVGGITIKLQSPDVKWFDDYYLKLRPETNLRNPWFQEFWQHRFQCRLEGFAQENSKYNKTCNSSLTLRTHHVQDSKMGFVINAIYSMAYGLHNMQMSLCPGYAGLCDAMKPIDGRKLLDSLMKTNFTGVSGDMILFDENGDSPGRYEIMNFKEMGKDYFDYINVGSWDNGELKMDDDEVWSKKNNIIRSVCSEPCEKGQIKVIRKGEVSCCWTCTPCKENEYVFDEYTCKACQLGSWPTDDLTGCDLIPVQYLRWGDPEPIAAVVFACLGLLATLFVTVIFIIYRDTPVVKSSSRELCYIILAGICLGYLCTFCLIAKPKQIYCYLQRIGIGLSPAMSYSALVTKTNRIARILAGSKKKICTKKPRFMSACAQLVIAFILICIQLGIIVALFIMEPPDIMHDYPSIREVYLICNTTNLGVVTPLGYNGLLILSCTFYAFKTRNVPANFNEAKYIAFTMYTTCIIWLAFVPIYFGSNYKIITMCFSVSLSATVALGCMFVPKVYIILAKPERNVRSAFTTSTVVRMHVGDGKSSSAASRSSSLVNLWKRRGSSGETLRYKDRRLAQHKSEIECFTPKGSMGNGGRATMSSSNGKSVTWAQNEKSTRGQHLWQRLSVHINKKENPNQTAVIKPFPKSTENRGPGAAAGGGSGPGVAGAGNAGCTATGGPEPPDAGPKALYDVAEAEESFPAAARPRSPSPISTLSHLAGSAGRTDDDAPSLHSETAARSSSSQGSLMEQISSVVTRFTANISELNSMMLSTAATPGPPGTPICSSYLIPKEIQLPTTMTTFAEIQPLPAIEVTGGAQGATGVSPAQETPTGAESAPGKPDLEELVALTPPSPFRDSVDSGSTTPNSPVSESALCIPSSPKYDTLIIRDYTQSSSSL
UniProt P26038, whole entry, looked up: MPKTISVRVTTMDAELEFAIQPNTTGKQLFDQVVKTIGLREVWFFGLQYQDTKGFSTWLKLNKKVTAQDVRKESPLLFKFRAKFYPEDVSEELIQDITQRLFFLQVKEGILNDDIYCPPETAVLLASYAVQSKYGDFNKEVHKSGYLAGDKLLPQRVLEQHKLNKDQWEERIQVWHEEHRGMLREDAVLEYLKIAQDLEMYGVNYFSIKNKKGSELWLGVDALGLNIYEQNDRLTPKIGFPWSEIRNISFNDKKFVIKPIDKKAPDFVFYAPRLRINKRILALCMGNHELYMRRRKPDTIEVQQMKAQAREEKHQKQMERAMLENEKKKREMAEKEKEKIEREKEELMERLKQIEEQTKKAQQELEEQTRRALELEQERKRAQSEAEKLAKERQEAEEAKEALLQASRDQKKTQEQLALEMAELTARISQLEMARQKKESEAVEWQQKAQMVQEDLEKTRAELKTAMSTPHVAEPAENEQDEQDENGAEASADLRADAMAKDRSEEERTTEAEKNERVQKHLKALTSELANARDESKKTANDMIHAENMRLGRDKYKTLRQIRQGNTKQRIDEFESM

For `COC(=O)[C@@H]1C(c2nc3cc(C)ccc3o2)=Cc2cc3c(cc2[C@H]1c1cc(OC)c(OC)c(OC)c1)OCO3`, the IC50 was 16.1 ± 2.1 µM (Tubulin alpha/beta heterodimer (Leishmania infantum, UniProt A0A381MCS3+A4HTR0); tubulin polymerization, inhibitor; 37 °C, with: tubulin 1.2 mg/mL).
The IC50 of `COc1ccc2[nH]cc(CCc3ccncc3)c2c1` is reported as greater than 50 µM (IDO1; enzyme activity, inhibitor).
`O=C(CCCCCn1c(=S)[nH]c2ccccc2c1=O)N1CCN(c2cccc([N+](=O)[O-])c2)CC1` gave an IC50 of 6.6 µM (ESR1; reporter gene, antagonist; HEC-1 cells transfected with ERα; with: estradiol 1 nM).
`Cc1cnccc1-c1ccc(C2(c3ccc(Cl)cc3)CCNCC2)cc1` gave an IC50 of 0.118 µM (AKT1 (Homo sapiens, UniProt P31749); kinase activity, inhibitor, radiometric HotSpot; with: ATP 10 µM).
`CC(C)c1ccc(SCC(=O)Nc2ccc3nc(SCC(=O)NC4CC4)sc3c2)cc1` gave an IC50 of 20 to 50 µM (ESR1; reporter gene, antagonist; HEC-1 transfected ERα luciferase reporter).
The IC50 of `O=[N+]([O-])c1cccc(/C=C/c2c[nH]c3ccc(F)cc23)c1` is reported as greater than 100 µM (IDO1; enzyme activity, inhibitor).
For `CC(C)=CCC/C(C)=C/CC/C(C)=C/CC/C(C)=C/CC1=C(C)C(=O)c2ccccc2C1=O`, the IC50 was greater than 50 µM (TGM2 (Homo sapiens, UniProt P21980); enzyme activity, inhibitor, biotin-pentylamine incorporation; 10 mM DTT).
The IC50 of `CCOc1ccc(S(=O)(=O)NC(=O)Cc2ccc(Oc3ccccc3)cc2)cc1Br` is reported as 58.4 µM (CGAS (Homo sapiens, UniProt Q8N884); enzyme activity, inhibitor, Kinase-Glo ATP depletion; 25 °C, 100 nM enzyme).
`Cc1ccc(C(=O)n2cc(C#N)c3ccccc32)cc1` gave an IC50 of 10.1 ± 1.3 µM (Neutrophil elastase (ELANE, Homo sapiens, UniProt P08246); enzyme activity, inhibitor, fluorogenic substrate).
The IC50 of `Nc1c(Cl)ccc2cccnc12` is reported as greater than 40 µM (METAP1 (Homo sapiens, UniProt P53582); enzyme activity, inhibitor).
`CC(C)Oc1cc(C(=O)N2CCC(N3CCN(C)CC3)CC2)ccc1Nc1ncc2c(n1)N(C(C)C)c1ccccc1C(=O)N2C` has an IC50 of 0.235 ± 0.034 µM (LRRK2 (Homo sapiens, UniProt Q5S007); kinase activity, Adapta).
The IC50 of `CSc1cc(NC(=O)c2ccccn2)ccc1Cl` is reported as greater than 30 µM (GRM5 (Homo sapiens, UniProt P41594); antagonist).
`NS(=O)(=O)c1ccccc1Nc1nc(-c2ccc(Cl)cc2)c2ccccc2n1` has an IC50 of 0.612 ± 0.214 µM (Bromodomain-containing protein 4, BD1 (BRD4, Homo sapiens, UniProt O60885); binding, HTRF).
For `O=C(Nc1ccccc1OS(=O)(=O)c1ccc(I)cc1)c1cnccn1`, the IC50 was 1.9 ± 0.172 µM (P2X purinoceptor 7 (P2RX7, Homo sapiens, UniProt Q99572); calcium mobilisation, antagonist; MCF7 transfected with target; with: Bz-ATP 100 µM).
The IC50 of `O=C(O)CNC(=O)c1cc(C(=O)O)cc([C@H]2CCN[C@@H]2C(=O)O)c1` is reported as 9.94 ± 0.52 µM (Glutamate receptor ionotropic, NMDA 2C, with GluN1 (Rattus norvegicus, UniProt Q00961); ion current, antagonist, two-electrode voltage clamp; Xenopus oocytes; GluN1/GluN2C, with: glycine 100 µM and glutamate 1 µM).
`OC[C@@H]1[C@@H](O)[C@H](O)[C@@H](O)CN1CCCCCOCc1ccc(-c2cccnc2)cc1` has an IC50 of 2 µM (Ugcg (Mus musculus, UniProt O88693); inhibitor, C6-NBD-ceramide in situ; RAW264.7).
`COc1ccc(-c2nc(Nc3nc4ccccc4o3)ncc2C#N)cc1F` gave an IC50 of 1.06 ± 0.696 µM (Grm5 (Rattus norvegicus, UniProt P31424); calcium mobilization, negative allosteric modulator; with: glutamate EC80).
The IC50 of `Cc1ncc(CCc2ccc3c(c2)c(=O)c(C(N)=O)cn3-c2ccc(F)cc2)cn1` is reported as 0.215 µM (Grm2 (Rattus norvegicus, UniProt P31421); calcium mobilization, negative allosteric modulator).
`Cc1ccccc1C(=O)Nc1ccc(-c2nc3ccccc3[nH]2)cc1` gave an IC50 of greater than 100 µM (Moesin, with CD44 (Homo sapiens, UniProt P26038); MSN-CD44 interaction, inhibitor, TR-FRET; with: CD44).

Repeated from above:
`NS(=O)(=O)c1ccccc1Nc1nc(-c2ccc(Cl)cc2)c2ccccc2n1` has an IC50 of 0.612 ± 0.214 µM (Bromodomain-containing protein 4, BD1 (BRD4, Homo sapiens, UniProt O60885); binding, HTRF).
The IC50 of `O=[N+]([O-])c1cccc(/C=C/c2c[nH]c3ccc(F)cc23)c1` is reported as greater than 100 µM (IDO1; enzyme activity, inhibitor).
